# Measurements collected from several papers.
# Each numbered part is a random draw from the data of one study; scales do not carry over between parts.

# Set 1
# Target: RNA binding protein fox-1 homolog 2, RRM domain, GST-SBP tag (RBFOX2, Homo sapiens, UniProt O43251-10, residues 100-194)
# Technique: RNA Bind-n-Seq
# Molecule type: RNA
# Matrix: in vitro
# Concentration: 365 nM
# Setting: natural RNA segment, single round, ends assumed
# Baseline: no-protein control
# Reading: higher = stronger binding
# Residues (chain): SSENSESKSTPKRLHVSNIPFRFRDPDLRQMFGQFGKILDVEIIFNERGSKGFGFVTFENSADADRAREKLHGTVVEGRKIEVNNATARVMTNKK
Sequence,RBNS enrichment (R)
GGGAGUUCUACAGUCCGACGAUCAGUGCUCCUGGAAACUUAGCUUUUGAUGUCUCCAAGUAGUCCACCUUCAUUUAACUCUUUGAAACUGUAUCAUCUUUGCCAAGUAAGAGUGGUGGCCUAUUUCAGCUGCUUGGAAUUCUCGGGUGCCAA,0.417
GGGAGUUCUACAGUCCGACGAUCUUCACCUUCAUCGCAGACUGAAAGUUUCAGUUUUUAUUUUUUUCAGAAAGCACGAAAAAUUAUUUAUAAUAGUCUGGAGAAAAAACACACUGUAAUAUUUCAAGUGUAUGUGGAAUUCUCGGGUGCCAA,45.5
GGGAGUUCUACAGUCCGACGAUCAGGAGAUGUCAUGACAACACUACACGCACCCAAUAAAGCGAAUGGACCAUCCAUGUGUGUCCCUGUGGCACCGGGUCCUGCCCACCCUGGUUUUGAUCAUCCACAGCAUUUGGAAUUCUCGGGUGCCAA,1.4
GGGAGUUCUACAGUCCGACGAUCGUCUGCUCUGAGCCUUAAAACACAGAUUGAAGAAGAAAAGAAAGAAAAAACUUAAAUAUUUAUUUCUAUGCUUUGUUGCCUCUGAGAAUAAUGACAAUUUAUGAAUUUGUUGGAAUUCUCGGGUGCCAA,0.767
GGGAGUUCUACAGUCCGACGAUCCUAGCAAGAAGUAUAUAUUUUCUUUGAUUUUUAUUUUCAUUUUCCUUUGCCUGUAUUUAUCAAAGAAAAAGACCAAAAGAUGAUGGUAAAACCUCUGUUUCUAUAGAUUUUGGAAUUCUCGGGUGCCAA,0.448
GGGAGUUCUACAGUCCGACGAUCUCGCCAGCCCUGUAGAAGGCUCCUCUGCAGUGAUCAUCUCUAAUAGAGUUGUCGAGCCUUGGAAUUGAUGCAGCUGUGUAGUGAGAACACAUUUGGCCAUAUUGGUGCUGUGGAAUUCUCGGGUGCCAA,0.265
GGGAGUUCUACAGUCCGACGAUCAAACUAGCAAAUGAUGCAUGUAUUUUGUUUUUCAUGUACUGGGCAAUAUGAGUAAAAUCUGUCCCUUUUUCCCCCUUUGAAUGAGGUCUUCCAUGUUUGAGGGAAAGUCUUGGAAUUCUCGGGUGCCAA,7.39
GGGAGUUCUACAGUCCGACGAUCAACGUGACCUAGAAACCAAGAGAUACUGCUUCAUGUGUGGUCUUUAUUGGGCCACAGGAGGGUCAAUCUUGUGGGUCUGUGCUGUAAUCUGCCUUACUUGCACCCACCAGUGGAAUUCUCGGGUGCCAA,0.35

# Set 2
# Target: Histone acetyltransferase KAT6A, both winged helices, GST fusion (KAT6A, Homo sapiens, UniProt Q92794, residues 1-181)
# Technique: protein binding microarray
# Molecule type: double-stranded DNA, one strand shown
# Matrix: in vitro
# Concentration: not given
# Setting: 8-mer, flanks averaged, mean of 2 arrays, mostly near background
# Baseline: not given
# Reading: higher = stronger binding
# Residues (chain): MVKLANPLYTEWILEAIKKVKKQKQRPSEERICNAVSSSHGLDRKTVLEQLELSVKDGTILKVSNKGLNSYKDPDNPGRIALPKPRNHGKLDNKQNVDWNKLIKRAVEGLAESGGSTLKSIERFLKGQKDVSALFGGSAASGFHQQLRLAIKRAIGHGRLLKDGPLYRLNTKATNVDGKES
Sequence,E-score
GATTAATA,-0.0394
ACGAGCTA,-0.0734
CAATCATA,-0.0429
CGTGAGCC,0.128
CTGGCGCC,-0.00664
TACTGGAA,-0.142
GCAAAACA,-0.0387
ACGGTTAT,0.13
AACTCTAC,-0.204
CTCATAAG,-0.301
CCTATCTC,-0.218
GCGTCTAA,0.161
TAAAGGAA,-0.106
TATCTTGA,-0.117

# Set 3
# Target: PABPC1L2, full length, GST fusion (mouse, UniProt A0ABA7IW68)
# Technique: RNAcompete
# Molecule type: RNA
# Matrix: in vitro
# Concentration: 20 nM
# Setting: 7-mer, probes averaged, single round
# Baseline: mean of 7-mers
# Reading: higher = stronger binding
# Construct (chain): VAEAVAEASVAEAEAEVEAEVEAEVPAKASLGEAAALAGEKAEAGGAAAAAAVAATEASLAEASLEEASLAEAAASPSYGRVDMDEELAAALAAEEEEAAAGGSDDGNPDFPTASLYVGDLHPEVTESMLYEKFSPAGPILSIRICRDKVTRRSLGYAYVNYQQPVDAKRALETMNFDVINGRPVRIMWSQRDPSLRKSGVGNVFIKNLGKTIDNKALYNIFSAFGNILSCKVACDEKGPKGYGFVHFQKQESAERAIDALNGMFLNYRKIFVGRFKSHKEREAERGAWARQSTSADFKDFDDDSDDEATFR
Sequence,7-mer Z-score
GAUGAGG,-0.0772
GGCGCAC,0.0207
AUUGCGU,-0.142
UACUACA,-0.126
UAAAUCG,0.707
GCUGAAU,-0.0409
GUCUCGU,-0.344
UUUUAUC,-0.244
CACGCUA,-0.249
UCUACAG,-0.197
AAUGCCU,-0.0718
UCCACAU,-0.313
AAGGCGA,0.452
UAACCGA,0.0334
AAUCGGG,0.474
ACCAAAU,0.412
AAAAGUC,4.01
UUUAAAC,0.0642

# Further values, each from its own experiment
Molecule,target,test,test system,conditions,how to read,measurement,value
"PhoQ, residues 284 288 289 292 302 303 SLSLLA","PhoP, residues 12 14 15 18 19 TQCLL (Escherichia coli, UniProt P23836)","Sort-seq, refers to: YFP reporter",E. coli,"PhoQ-PhoP variant library, together with: 10 µM Mg2+","baseline: high Mg2+ state, higher = stronger signaling",fold induction,4.82

# A few entries again (set 3):
Sequence,7-mer Z-score
UUUUAUC,-0.244
CACGCUA,-0.249
UCUACAG,-0.197
